Published values collected from several papers.
Protocols differ between the studies behind these lines. Values joined by “and” are separate records of one study, mostly repeats; a detail may differ. ± marks the error that the study gave.

SMILES	tested on	assay	system	setting	how to read	endpoint	result
Cc1nc([C@H](NC(=O)c2ccc(-c3ccc(Cl)cc3)[nH]2)[C@H]2CCCCN2)sc1CO	U87/CD4/CCR5	cell growth or viability, XTT				CC50	~24 µM
C[C@@](O)(C(F)F)[C@H](NC(=O)c1ccc(C#CC#CC2CC2)cc1)C(=O)NO			CD-1 mouse	oral, 40 mg/kg, not fasted	relative to: AUC oral over AUC IV	oral bioavailability	~23% and 23%
CN[C@](C)(C[18F])C(=O)O	MDA-MB-468 tumour model		host not given, muscle	15 min, tumour-bearing		tracer uptake	1.6 %ID/g
CCCCCCCCCC(=O)NCC(=O)N[C@@H](CC(C)C)C(=O)N[C@@H](CC(C)C)C(=O)N[C@@H](CCCCN)C(=O)N[C@@H](CCCNC(=N)N)C(=O)N[C@H](C(=O)N[C@@H](CCCCN)C(=O)N[C@H](C(=O)N[C@@H](CC(C)C)C(=O)N[C@@H](CC(C)C)C(=O)NCCCC[C@H](NC(=O)[C@H](CC(C)C)NC(=O)[C@H](CC(C)C)NC(=O)[C@@H](NC(=O)[C@H](CCCCN)NC(=O)[C@@H](NC(=O)[C@H](CCCNC(=N)N)NC(=O)[C@H](CCCCN)NC(=O)[C@H](CC(C)C)NC(=O)[C@H](CC(C)C)NC(=O)CNC(=O)CCCCCCCCC)[C@@H](C)CC)[C@@H](C)O)C(=O)NCCCC[C@H](NC(=O)[C@H](CCCCNC(=O)[C@H](CC(C)C)NC(=O)[C@H](CC(C)C)NC(=O)[C@@H](NC(=O)[C@H](CCCCN)NC(=O)[C@@H](NC(=O)[C@H](CCCNC(=N)N)NC(=O)[C@H](CCCCN)NC(=O)[C@H](CC(C)C)NC(=O)[C@H](CC(C)C)NC(=O)CNC(=O)CCCCCCCCC)[C@@H](C)CC)[C@@H](C)O)NC(=O)[C@H](CC(C)C)NC(=O)[C@H](CC(C)C)NC(=O)[C@@H](NC(=O)[C@H](CCCCN)NC(=O)[C@@H](NC(=O)[C@H](CCCNC(=N)N)NC(=O)[C@H](CCCCN)NC(=O)[C@H](CC(C)C)NC(=O)[C@H](CC(C)C)NC(=O)CNC(=O)CCCCCCCCC)[C@@H](C)CC)[C@@H](C)O)C(N)=O)[C@@H](C)O)[C@@H](C)CC	human erythrocytes			1 h, 37 °C, 10% haemolysis		minimum haemolytic concentration	12.5 µM
O=C(O)CCC(NP(=O)(O)OCCC[C@@H](NC(=O)CCC(NC(=O)c1ccc([18F])cc1)C(=O)O)C(=O)O)C(=O)O (stereo partly drawn)	CWR22Rv1 tumour model		host not given, blood	intravenous, 2 h, tumour-bearing		tracer uptake	0.07 %ID/g
CCCCCCCC(=O)NCC(=O)N[C@@H](CC(C)C)C(=O)N[C@@H](CC(C)C)C(=O)N[C@@H](CCCCN)C(=O)N[C@@H](CCCNC(=N)N)C(=O)N[C@H](C(=O)N[C@@H](CCCCN)C(=O)N[C@H](C(=O)N[C@@H](CC(C)C)C(=O)N[C@@H](CC(C)C)C(=O)NCCCC[C@H](NC(=O)[C@H](CCCCNC(=O)[C@H](CC(C)C)NC(=O)[C@H](CC(C)C)NC(=O)[C@@H](NC(=O)[C@H](CCCCN)NC(=O)[C@@H](NC(=O)[C@H](CCCNC(=N)N)NC(=O)[C@H](CCCCN)NC(=O)[C@H](CC(C)C)NC(=O)[C@H](CC(C)C)NC(=O)CNC(=O)CCCCCCC)[C@@H](C)CC)[C@@H](C)O)NC(=O)[C@H](CC(C)C)NC(=O)[C@H](CC(C)C)NC(=O)[C@@H](NC(=O)[C@H](CCCCN)NC(=O)[C@@H](NC(=O)[C@H](CCCNC(=N)N)NC(=O)[C@H](CCCCN)NC(=O)[C@H](CC(C)C)NC(=O)[C@H](CC(C)C)NC(=O)CNC(=O)CCCCCCC)[C@@H](C)CC)[C@@H](C)O)C(N)=O)[C@@H](C)O)[C@@H](C)CC	human erythrocytes			1 h, 37 °C, 10% haemolysis		minimum haemolytic concentration	59.7 µM
COc1ccc(CNc2nc(N3CCC[C@H]3CO)ncc2C(=O)NNC(=O)c2cnc(N3CCC[C@H]3CO)nc2NCc2ccc(OC)c(Cl)c2)cc1Cl	Salmonella typhimurium		TA1535	125 µg/plate, 48 h		revertant count	37 ± 2
CCCCCCCCCC(=O)NCC(=O)N[C@@H](CC(C)C)C(=O)N[C@@H](CC(C)C)C(=O)N[C@@H](CCCCN)C(=O)N[C@@H](CCCNC(=N)N)C(=O)N[C@H](C(=O)N[C@@H](CCCCN)C(=O)N[C@H](C(=O)N[C@@H](CC(C)C)C(=O)N[C@@H](CC(C)C)C(=O)NCCCC[C@H](NC(=O)[C@H](CCCCNC(=O)[C@H](CC(C)C)NC(=O)[C@H](CC(C)C)NC(=O)[C@@H](NC(=O)[C@H](CCCCN)NC(=O)[C@@H](NC(=O)[C@H](CCCNC(=N)N)NC(=O)[C@H](CCCCN)NC(=O)[C@H](CC(C)C)NC(=O)[C@H](CC(C)C)NC(=O)CNC(=O)CCCCCCCCC)[C@@H](C)CC)[C@@H](C)O)NC(=O)[C@H](CC(C)C)NC(=O)[C@H](CC(C)C)NC(=O)[C@@H](NC(=O)[C@H](CCCCN)NC(=O)[C@@H](NC(=O)[C@H](CCCNC(=N)N)NC(=O)[C@H](CCCCN)NC(=O)[C@H](CC(C)C)NC(=O)[C@H](CC(C)C)NC(=O)CNC(=O)CCCCCCCCC)[C@@H](C)CC)[C@@H](C)O)C(N)=O)[C@@H](C)O)[C@@H](C)CC	human erythrocytes			1 h, 37 °C, 10% haemolysis		minimum haemolytic concentration	147 µM
CCC(=O)N(C)c1ccc(Cl)c(Cl)c1	Salmonella typhimurium	Ames test	TA1537	0.05 mg/plate, with rat liver S9		revertants	3 ± 2.6 revertants/plate
N=C(N)N1CC23C4C=CC5C4C4C2C=CC4C53C1	dog cells	cytotoxicity		3 (unit not given)		CC50	> 100 µM
O=C(O)CCC(NP(=O)(O)OCCC[C@@H](NC(=O)CCC(NC(=O)CCCCCNC(=O)c1ccc([18F])cc1)C(=O)O)C(=O)O)C(=O)O (stereo partly drawn)	CWR22Rv1 tumour model		host not given, spleen	intravenous, 1 h, tumour-bearing		tracer uptake	1.02 %ID/g
C[C@]12CC[C@H](OCC[18F])C[C@H]1CC[C@@H]1[C@@H]2CC[C@]2(C)[C@@H](c3ccc(=O)oc3)CC[C@]12O	SMMC-7721 tumour model		nude, tumour	intravenous, 7.4 MBq, 35 min, tumour-bearing		tracer uptake	4.38 %ID/g
COc1ccc(CNc2nc(N3CCC[C@H]3CO)ncc2C(=O)NN)cc1Cl	Salmonella typhimurium		TA98	62.5 µg/plate, 48 h		revertant count	34 ± 4
CN(C)CC1CCCCC1(O)c1cccc(O)c1 (stereo not drawn)	P-glycoprotein		Caco-2 TC7	10 µM, 3 h, pH 6.8 apical, 7.4 basolateral, together with: cyclosporin A 10 µM		efflux ratio	2.2
CC[C@H](C)C(=O)N1CCC(NC(=O)Nc2ccc(OC(F)(F)F)c(F)c2)CC1			healthy volunteers	oral, 2 mg single dose, 14 (unit not given)		subjects with any AE	66.7%
Cl.Cl.Cl.Cl.Cl.Cl.Cl.Cl.Cl.Cl.Cl.Cl.NC[C@@H]1O[C@H](O[C@H]2[C@@H](O)[C@H](O[C@@H]3[C@@H](O)[C@H](N)C[C@H](N)[C@H]3O[C@H]3O[C@H](CN)[C@@H](O)[C@H](O)[C@H]3N)O[C@@H]2Cn2cc(CCCCCCc3cn(C[C@H]4O[C@@H](O[C@@H]5[C@@H](O)[C@H](N)C[C@H](N)[C@H]5O[C@H]5O[C@H](CN)[C@@H](O)[C@H](O)[C@H]5N)[C@H](O)[C@@H]4O[C@H]4O[C@@H](CN)[C@@H](O)[C@H](O)[C@H]4N)nn3)nn2)[C@H](N)[C@@H](O)[C@@H]1O	MT-2	cytotoxicity				CT5	34 µM
COc1cc(C(=O)NCCOCCOCCOCCNC(=O)c2ccc([18F])nc2)ccc1NC(=O)C1NC(CC(C)(C)C)C(C#N)(c2ccc(Cl)cc2F)C1c1cccc(Cl)c1F (stereo not drawn)	HepG2 tumour model		host not given, heart	2 h, tumour-bearing		tracer uptake	0.72 %ID/g
CC[C@H](C)[C@H](NC(=O)[C@H](CC(C)C)NC(=O)CNC(=O)[C@H](CCCCN)NC(=O)[C@@H](NC(=O)[C@@H](NC(=O)[C@H](CC(N)=O)NC(=O)[C@H](Cc1c[nH]c2ccccc12)NC(=O)[C@@H](NC(=O)[C@H](CCC(=O)O)NC(=O)CNC(=O)[C@H](Cc1c[nH]c2ccccc12)NC(=O)[C@@H](N)CC(C)C)[C@@H](C)CC)[C@@H](C)O)C(C)C)C(N)=O	human erythrocytes			up to 10 µg/mL, 1 h, 37 °C		viability	> 95%

Excerpt of the above:
SMILES	tested on	assay	system	setting	how to read	endpoint	result
COc1ccc(CNc2nc(N3CCC[C@H]3CO)ncc2C(=O)NN)cc1Cl	Salmonella typhimurium		TA98	62.5 µg/plate, 48 h		revertant count	34 ± 4
CN(C)CC1CCCCC1(O)c1cccc(O)c1 (stereo not drawn)	P-glycoprotein		Caco-2 TC7	10 µM, 3 h, pH 6.8 apical, 7.4 basolateral, together with: cyclosporin A 10 µM		efflux ratio	2.2
